# Measurements collected from several papers.
# Numbered parts are unrelated; each lists some results of a single study. Several values in a cell are separate wells, animals, samples, runs or records. Changes are numbered by the printed parent chain.

# Series 1
# Target: CCNA1, cyclin fold, Cln2 fusion (human)
# Technique: yeast growth competition, sequencing
# Sample: yeast
# Notes: weak parent motif
# Baseline: not given
# Reading: higher = stronger binding
# Starting sequence: CDC25A docking peptide (human); PPHRRRLLFACSP
Change,normalised enrichment score
KPHRRRLLFACSP [P1K],0.634
PYHRRRLLFACSP [P2Y],0.379
PPHRRRLIFACSP [L8I],0.356
PPHRRRLLKACSP [F9K],0.618
PCHRRRLLFACSP [P2C],0.547
RPHRRRLLFACSP [P1R],0.424
DPHRRRLLFACSP [P1D],0.215
PGHRRRLLFACSP [P2G],0.373

# Series 2
# Target: Interferon regulatory factor 5, full length, phosphomimetic (IRF5, Homo sapiens, UniProt Q13568-2, residues 1-514, K96S/S451D/S453D/S456D/S462D)
# Technique: protein-binding microarray
# Molecule type: double-stranded DNA, one strand shown
# Sample: in vitro
# Tested at: 250 nM
# Notes: 60-bp whole probe
# With: salmon DNA 0.4 mg/ml
# Baseline: random background probes
# Reading: higher = stronger binding
# Constant ends, left off below: GCCTAGCAC … GTCTTGATTCGCTTGACGCTGCTG
Strand,log fluorescence [z-score]
GACGGTCTCCAACTGCTGACGTGCTAG,-0.587
CAGTTAATGAAAATTCTAATTGTGCTA,0.749
TAGTTTTTACTTTCTGAATGGTGCTAG,3.92
TTGTTTTTCATTATTGTCTTGTGCTAG,2.7
AAAATGATTGGTTGAACATGGTGCTAG,0.478
CTGCATCTGATTTCTCAAACAGTGCTA,0.138
TTAGGTTTCGGTCACGGTTAGTGCTAG,10.5
GACGATTTCGGGATTGGAGACGTGCTA,2.34
GCTTCTATGTAGTTGATGAAGTGCTAG,0.158
TTAGATTTCAGACTGGGTTAGTGCTAG,0.221

# Further values, each from its own experiment
Molecule,target or system,test,test system,conditions,scale,measurement,value
"PNN (Homo sapiens, UniProt Q9H307)","ACIN1 (Homo sapiens, UniProt Q9UKV3)",cross-linking MS,,hits only,,interaction screen,cross-linked
"PhoQ, residues 284 288 289 292 302 303 GANMMA","PhoP, residues 12 14 15 18 19 LWHSL (Escherichia coli, UniProt P23836)","Sort-seq, measured: YFP reporter",E. coli,"PhoQ-PhoP variant library, with: 10 µM Mg2+","baseline: high Mg2+ state, higher = stronger signaling",fold induction,5.51 and 10.6
"H1-3 (Homo sapiens, UniProt P16402)","H3-5 (Homo sapiens, UniProt Q6NXT2)",cross-linking MS,,hits only,,interaction screen,cross-linked
"FBL (Homo sapiens, UniProt P22087)","NOL7 (Homo sapiens, UniProt Q9UMY1)",cross-linking MS,,hits only,,interaction screen,cross-linked

# For quick reference, copied from above (series 2):
Strand,log fluorescence [z-score]
GACGGTCTCCAACTGCTGACGTGCTAG,-0.587
CAGTTAATGAAAATTCTAATTGTGCTA,0.749
TAGTTTTTACTTTCTGAATGGTGCTAG,3.92
